Measurements collected from several papers.
Lines come from different studies, so protocols differ. Several values in a cell are separate wells, animals, samples, runs or records. ± gives the spread as reported.

Structure (SMILES) | assay | test system | setting | tissue uptake
COc1ccc(Nc2nc(Nc3ccc(OCCOCCOCC[18F])cc3)ncc2Br)cc1 |  | ICR mice, S180 tumour, stomach | intravenous, 370 kBq, 120 min | 1.52 ± 0.19 %ID
CCCC[C@H](NC(=O)CCCCCCCNC(=O)CN1CCN(CC(=O)O)CCN(CC(=O)O)CC1)C(=O)N[C@H]1CC(=O)NCCCC[C@@H](C(N)=O)NC(=O)[C@H](Cc2c[nH]c3ccccc23)NC(=O)[C@H](CCCNC(=N)N)NC(=O)[C@@H](Cc2ccccc2)NC(=O)[C@H](Cc2c[nH]cn2)NC1=O [fluorine-18 labelled] |  | C57 mice, B16/F10 melanoma, brain | intravenous, 1 h, together with: NDP-MSH 10 µg | 0.03 ± 0.01 %ID/g
Cc1cc(C)n(CCN(CCN)CCCCCCNC(=O)[C@@H](N)Cc2c[nH]cn2)n1.[99Tc+].[C-]#[O+].[C-]#[O+].[C-]#[O+] |  | BALB/c nude mice, A549 xenograft, brain | intravenous, 15 min | 0.13 ± 0.01 %IA/g
CCCC[C@H](NC(=O)COCCOCCNC(=O)CN1CCN(CC(=O)O)CCN(CC(=O)O)CC1)C(=O)N[C@H]1CC(=O)NCCCC[C@@H](C(N)=O)NC(=O)[C@H](Cc2c[nH]c3ccccc23)NC(=O)[C@H](CCCNC(=N)N)NC(=O)[C@@H](Cc2ccccc2)NC(=O)[C@H](Cc2c[nH]cn2)NC1=O [fluorine-18 labelled] |  | C57 mice B16-F10 melanoma, spleen | intravenous, 0.37 MBq, 2 h | 0.02 ± 0.05 %ID/g
CCCC[C@H](NC(=O)CNC(=O)CNC(=O)[C@H](CCCCNC(=O)[C@H](CC(=O)O)NC(=O)C(C)c1ccc(CC(C)C)cc1)NC(=O)CN1CCN(CC(=O)O)CCN(CC(=O)O)CCN(CC(=O)O)CC1)C(=O)N[C@H]1CC(=O)NCCCC[C@@H](C(N)=O)NC(=O)[C@H](Cc2c[nH]c3ccccc23)NC(=O)[C@H](CCCNC(=N)N)NC(=O)[C@@H](Cc2ccccc2)NC(=O)[C@H](Cc2c[nH]cn2)NC1=O (stereo partly drawn) [lutetium-177 labelled] |  | C57 mice, tumour-bearing, spleen | 2 h | 0.36 ± 0.09 %ID/g
O=C([O-])CN1CCN(CC(=O)[O-])CCN(CC(=O)NC[C@H]2CC[C@H](C(=O)N[C@H](Cc3cnc4ccccc4c3)C(=O)NCCCC[C@H](NC(=O)N[C@@H](CCC(=O)O)C(=O)O)C(=O)O)CC2)CCN(CC(=O)[O-])CC1.[64Cu+2] | ex vivo gamma counting | 22Rv1 tumour-bearing mice, muscle | intravenous, 0.74 MBq, 1 h post-injection | 0.96 %ID/g
Cc1cc(C)n(CCN(CCN)CCCCCCNC(=O)[C@@H](N)Cc2c[nH]c3ccccc23)n1.[99Tc+].[C-]#[O+].[C-]#[O+].[C-]#[O+] |  | BALB/c nude mice A549 xenograft, blood | intravenous, 4 h | 0.38 ± 0.22 %ID/g
O=C(NCC1OC2CCC=CCCC2O1)c1ccc(COCCOCCOCC[18F])cc1 (stereo not drawn) |  | healthy female BALB/c nude mice, large intestine | intravenous, 7.4 MBq per mouse, 120 min | 12.6 ± 0.4 %ID/g
COc1ccc(Nc2nc(Nc3ccc(OCCOCC[18F])cc3)ncc2Br)cc1 |  | ICR mice, S180 tumour-bearing, spleen | intravenous, 370 kBq, 30 min | 2.68 ± 0.28 %ID/g
CC(C)C[C@H](NC(=O)[C@@H](CCCCNC(=O)[C@@H](Cc1ccccc1)NC(=O)CCCCCCCNC(=O)CN1CCN(CC(=O)O)CCN(CC(=O)O)CCN(CC(=O)O)CC1)NC(=O)[C@H](Cc1ccc(O)cc1)NC(=O)[C@H](CO)NC(=O)[C@H](Cc1c[nH]c2ccccc12)NC(=O)[C@H](Cc1c[nH]cn1)NC(=O)[C@@H]1CCC(=O)N1)C(=O)N[C@@H](CCCNC(=N)N)C(=O)N1CCC[C@H]1C(=O)NCC(N)=O [indium-111 labelled] | biodistribution | male athymic nude mice, DU-145 prostate cancer xenograft, liver | intravenous, 0.037 MBq, 2 h post-injection | 0.5 ± 0.07 %ID/g
O=C(NCC1OC2CCC=CCCC2O1)c1ccc([18F])nc1 (stereo not drawn) |  | healthy female BALB/c nude mice, heart | intravenous, 7.4 MBq per mouse, 120 min | 0.4 ± 0.03 %ID/g
N#C[C@@H]1CCCN1C(=O)CNC(=O)c1ccnc2ccc(OCCCN3CCN(C(=O)CCc4ccc5c(c4)CN4CCN6CC(=O)[O][68Ga-]([O]C(=O)C4)([O]5)[O]c4ccc(CCC(=O)N5CCN(CCCOc7ccc8nccc(C(=O)NCC(=O)N9CCC[C@H]9C#N)c8c7)CC5)cc4C6)CC3)cc12 |  | BALB/c nude mice, U-87 MG xenograft, liver | 1 h, blocking, together with: DOTA-FAPI-04 40 nmol/mouse co-injected | 7.08 ± 0.59 %ID/g
COc1ccc2c(c1)C(C)(C)C(/C=C/C1=C(Oc3ccc(C(=O)NCCCCOc4cc(CN(Cc5ccccn5)Cc5ccccn5)cc(CN(Cc5ccccn5)Cc5ccccn5)c4)cc3)C(=C/C=C3/N(CCCCS(=O)(=O)[O-])c4ccc(OC)cc4C3(C)C)CCC1)=[N+]2CCCCS(=O)(=O)[O-].O=[N+]([O-])[O-].O=[N+]([O-])[O-].[99Tc+].[C-]#[O+].[C-]#[O+].[C-]#[O+].[Zn+2] |  | BALB/c mice, S. aureus myositis, infected muscle | 12 h post-injection | 1.28 %ID/g and 1.13 %ID/g and 2.48 %ID/g and 1.84 %ID/g
CCCC[C@H](NC(=O)CNC(=O)CNC(=O)[C@H](CCCCNC(=O)[C@H](CC(N)=O)NC(=O)C(C)c1ccc(CC(C)C)cc1)NC(=O)CN1CCN(CC(=O)O)CCN(CC(=O)O)CCN(CC(=O)O)CC1)C(=O)N[C@H]1CC(=O)NCCCC[C@@H](C(N)=O)NC(=O)[C@H](Cc2c[nH]c3ccccc23)NC(=O)[C@H](CCCNC(=N)N)NC(=O)[C@@H](Cc2ccccc2)NC(=O)[C@H](Cc2c[nH]cn2)NC1=O (stereo partly drawn) [lutetium-177 labelled] |  | C57 mice, tumour-bearing, stomach | 2 h | 4 ± 2.43 %ID/g
N#C[C@@H]1CCCN1C(=O)CNC(=O)c1ccnc2ccc(OCCCN3CCN(C(=O)CCc4ccc5c(c4)CN4CCN(Cc6cc(CCC(=O)O)ccc6O)CC(=O)[O][Al-]([18F])([O]C(=O)C4)[O]5)CC3)cc12 (stereo partly drawn) |  | BALB/c nude mice, U-87 MG xenograft, lung | 1 h | 1.87 ± 0.33 %ID/g

Some of these lines once more:
Structure (SMILES) | assay | test system | setting | tissue uptake
COc1ccc(Nc2nc(Nc3ccc(OCCOCCOCC[18F])cc3)ncc2Br)cc1 |  | ICR mice, S180 tumour, stomach | intravenous, 370 kBq, 120 min | 1.52 ± 0.19 %ID
